Published values from different studies.
Each numbered part is a random draw from the data of one study; scales do not carry over between parts. Values joined by “and” are separate records of one study, mostly repeats; a detail may differ.

Block 1 — read-out: peptide-MHC binding; form: peptide; concentration: concentration not given; quantity: binding
Target: HLA class I histocompatibility antigen, A alpha chain, allele A*80:01 (Homo sapiens, UniProt P04439)
GVEGIGLQY: inactive
ESMMGSTAM: inactive
SIPFGLMSA: inactive
NTDIKTLKF: inactive
VLYHRYNLV: inactive
WASGVPAAT: inactive
LSDAARLFL: inactive

Block 2 — read-out: binding; technique: radioligand binding; concentration: 10 µM; quantity: inhibition
Target: Sodium-dependent serotonin transporter (SLC6A4, Homo sapiens, UniProt P31645)
O[C@]1(C(F)(F)F)CCCC[C@H]1Nc1ccc(F)cc1: -0.01%
CC[C@H](CC(=O)O)n1c(=O)c2ncccc2n(Cc2cn(C)c3cc(C)cc(C)c23)c1=O: 4.96%
Cc1c(NC(=O)c2cc(C(N)=O)nc3cc(F)ccc23)c(C(F)(F)F)nn1Cc1ccc(C(C)(C)C)cc1: -3.13%

Block 3 — cell line: HEK-293T-ACE2-TMPRSS2; technique: cell count; concentration: 10 µM; quantity: viability
Fc1ccc(NC2=NCCCCC2)cc1: 79%
COc1cccc(F)c1-c1ccc2cc[nH]c(=O)c2c1: 70%
CCc1cc2c(C)cc(=O)oc2cc1O: 69%

Single results of other studies
O=C1CCC(N2Cc3c(ccc4c3OCC43CCN(Cc4ccccc4)CC3)C2=O)C(=O)N1 (centres unmarked)  MRT(0-inf) (rat Sprague Dawley male, plasma; oral, 3.0 mg/kg): 3.72 h and 4.18 h

Some of these lines once more (block 2):
O[C@]1(C(F)(F)F)CCCC[C@H]1Nc1ccc(F)cc1: -0.01%
CC[C@H](CC(=O)O)n1c(=O)c2ncccc2n(Cc2cn(C)c3cc(C)cc(C)c23)c1=O: 4.96%
